# Experimental data gathered from unrelated publications.
# Each numbered part is a random draw from the data of one study; scales do not carry over between parts.

# Series 1
# Target: Histone acetyltransferase KAT6A, winged helix 1, GST fusion (KAT6A, Homo sapiens, UniProt Q92794, residues 1-85)
# Technique: protein binding microarray
# Form: double-stranded DNA, one strand shown
# Medium: in vitro
# Concentration: not given
# Notes: 8-mer, flanks averaged, mean of 2 arrays, mostly near background
# Relative to: not given
# Direction: higher = stronger binding
# Target sequence (chain): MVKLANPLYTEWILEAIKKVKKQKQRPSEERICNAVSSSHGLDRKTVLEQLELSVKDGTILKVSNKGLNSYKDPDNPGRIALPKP
Sequence,E-score
ATAGTGGC,-0.0426
GATTTCGA,0.0109
AAGGTTGG,-0.077
GTCGAGGA,-0.175
AGCCCTTA,-0.148
GCATACTA,-0.0464
CCCGCACG,0.329
GAGGATAA,-0.264
CGTTCTGA,-0.0692
AAGCGCCT,0.24
AACATTCG,-0.136
GGGTGCAA,-0.175
CAAGTGGA,-0.196
ATTTAGCG,0.139
AGTGATTC,-0.108
CTTTGTCC,-0.0655
CATGTGGG,-0.178
CGTATGGC,0.134
ACAGCTGC,-0.223
CGCACCAA,0.152
AATCCGGC,0.192
CCTAACAA,-0.209
AAGGCCTC,-0.192
CTTGAAAC,-0.0346
AGTGGATC,-0.177

# Series 2
# Target: Ras GTPase-activating protein-binding protein 1, RRM domain (G3BP1, Homo sapiens, UniProt Q13283)
# Chain of UniProt Q13283 (whole entry, looked up): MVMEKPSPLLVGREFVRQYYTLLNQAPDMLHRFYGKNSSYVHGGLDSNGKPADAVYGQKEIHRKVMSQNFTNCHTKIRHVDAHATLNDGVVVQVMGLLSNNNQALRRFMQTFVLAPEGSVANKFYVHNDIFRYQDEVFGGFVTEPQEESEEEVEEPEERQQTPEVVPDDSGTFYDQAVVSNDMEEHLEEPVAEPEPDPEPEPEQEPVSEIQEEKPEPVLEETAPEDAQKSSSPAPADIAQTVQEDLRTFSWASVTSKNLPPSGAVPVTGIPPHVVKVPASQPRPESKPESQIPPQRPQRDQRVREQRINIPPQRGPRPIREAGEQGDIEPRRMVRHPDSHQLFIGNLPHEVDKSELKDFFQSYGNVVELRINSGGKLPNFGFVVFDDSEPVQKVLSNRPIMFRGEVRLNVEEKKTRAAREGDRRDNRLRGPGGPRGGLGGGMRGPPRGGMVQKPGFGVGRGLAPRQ
# Technique: RNA Bind-n-Seq
# Form: RNA
# Medium: in vitro
# Concentration: 1 µM
# Notes: whole 134-nt RNA, ends assumed
# Added: 150 mM KCl
# Relative to: input library
# Direction: higher = stronger binding
Sequence,log2 enrichment
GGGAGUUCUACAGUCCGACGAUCUCCUGUGCUACACAUCGUAUGUACCGAAUCGGGUUUUUUGGGUUUUUUGGGUUUUUUGGGAAAGUAUUAUGUUACGCCGUUCGGAUCUGCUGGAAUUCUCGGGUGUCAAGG,-0.0585
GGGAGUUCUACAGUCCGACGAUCCACAGACAACACGCACCCACACAGACACAGAGGGAAGGGGUUGGGAUGGGGACAGGGUGCACAGCAGGGCGUGGUAGGACCCCAGCCCCUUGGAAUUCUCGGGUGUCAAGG,-0.288
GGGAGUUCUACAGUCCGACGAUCUGGGAGGUGGAUUUUGUUUAUUUUUUUAGCUCAUUUCCAGGGGUGGGAAUUUUUUUUUAAUAUGUGUCAUGAAUAAAGUUGUUUUUAAAAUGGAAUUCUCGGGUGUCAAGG,1.13
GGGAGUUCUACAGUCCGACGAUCUAACUUUAGAGGAGGAUCUGAUGGAUAUGGCAGUGGACGUGGAUUUGGGGAUGGCUAUAAUGGGUAUGGAGGAGGACCUGGAGGUGGAAAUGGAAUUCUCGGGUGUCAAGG,-0.173
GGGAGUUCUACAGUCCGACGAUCGUCCUGUGCUACACAUCGUAUGUACCGAAUCGGGUUUGGGAAAAAAAGGGUUUUUGGGAAAGUAUUAUGUUACGCCGUUCGGAUCUGCACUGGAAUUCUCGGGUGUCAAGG,0.279
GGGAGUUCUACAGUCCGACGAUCCAAGUCCUGUGCUACACAUCGUAUGUACCGAAUCGGUUUUUGGAAAGGAAAAAGGAAAGUAUUAUGUUACGCCGUUCGGAUCUGCACUUCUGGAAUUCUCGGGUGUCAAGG,-0.199
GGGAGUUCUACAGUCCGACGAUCUAACUUUAGAGGAGGAUCUGAUGGAUAUGGCAGUGGACGUGGAUUUGGGGCUGGCUAUAAUGGGUAUGGAGGAGGACCUGGAGGUGGCAAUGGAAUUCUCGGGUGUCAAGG,-0.589
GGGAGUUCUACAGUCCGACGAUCUCCUGUGCUACACAUCGUAUGUACCGAAUCGGGGUUUGGGGUUUGGGGAAAAAAAGGGGAAAGUAUUAUGUUACGCCGUUCGGAUCUGCAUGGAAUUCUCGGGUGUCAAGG,1.05
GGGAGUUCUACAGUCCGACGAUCCCUCAAGUCCUGUGCUACACAUCGUAUGUACCGAAUCGGCGGGCGGGGCGGGAAAGUAUUAUGUUACGCCGUUCGGAUCUGCACUUCCAGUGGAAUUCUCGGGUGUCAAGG,-0.174

# Series 3
# Target: RING finger protein unkempt homolog, zinc fingers 1-6, GST-SBP tag (UNK, Homo sapiens, UniProt Q9C0B0, residues 30-357)
# Technique: RNA Bind-n-Seq
# Form: RNA
# Medium: in vitro
# Concentration: not given
# Notes: RNA with constant flanks, human and mouse sites, ends assumed
# Relative to: input RNA pool
# Direction: higher = stronger binding
# Residues (chain): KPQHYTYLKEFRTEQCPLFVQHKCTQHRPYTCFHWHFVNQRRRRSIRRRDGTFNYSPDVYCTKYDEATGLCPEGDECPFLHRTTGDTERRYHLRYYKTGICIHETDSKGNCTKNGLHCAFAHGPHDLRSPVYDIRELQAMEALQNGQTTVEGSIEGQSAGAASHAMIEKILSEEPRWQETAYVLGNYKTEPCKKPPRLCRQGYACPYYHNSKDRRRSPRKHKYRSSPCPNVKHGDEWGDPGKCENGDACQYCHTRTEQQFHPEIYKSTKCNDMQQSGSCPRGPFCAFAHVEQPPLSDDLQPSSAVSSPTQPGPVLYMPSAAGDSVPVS
Sequence,bound/input enrichment [ratio]
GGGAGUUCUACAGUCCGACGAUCGUAUCUAGCUUUUAAAGAACUACAUGUGUCUUUAAAAGUAUUUAUUGUGCAAAUGUACUAUAGCAGUUCAUCUUCAUGUUCCAGCCUUACUCUGUGUUAAUACUGCUUCACAAUUCUGAACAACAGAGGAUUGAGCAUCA,0.243
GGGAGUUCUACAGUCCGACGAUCGGAAAUAAAGAAGAUUAUGACCUUUCAAAGAUGAGAGACUUCAUCAAUAAACAAGCUGAUGCUUAUGUGGAGAAAGGCAUCCUUGACAAGGAAGAAGCCGAGGCCAUCAAGCGCAUUUAUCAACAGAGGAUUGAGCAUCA,0.085
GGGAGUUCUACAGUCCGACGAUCUGUUCUAACGCUGCCUUUGCUUUAAAACAGUAUUACUUGCGUUACCUAGAAAAGUACGAGAAAGUUCAUCAUUUUGGGGAGGAUGAUGAUGAGGUACCACCAGGCAAUCCAAAGCCACAGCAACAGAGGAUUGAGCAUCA,0.633
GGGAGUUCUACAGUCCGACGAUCGAAGAACCAAGAGCUUUAUACAUACAUUGUUAUGCACACUUUUUGGAUUUAUCAAUAAUUAGGUUUUGUAAAGAAGUAAAAGAACUCCGAAGUGCUCUAAAAACUCUCAGUUCUUUGUUCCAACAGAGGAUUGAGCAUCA,1.86
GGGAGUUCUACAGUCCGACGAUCGUUCAGGAGCCCUGGAAAGGAGAAGGAAUAAGACGACAGGAGGAAGAGAGAGAGAGGGUAGAAUGGAAGAGUCUCACUUCAAUUCUAACCCGUACUUCUGGCCUUCUAUCCCCACAGUCUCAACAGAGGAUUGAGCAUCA,0.101
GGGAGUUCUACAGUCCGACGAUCGAAGAGCCAAGCAGAAGCUCUUAGAAAUCGCCACCAAGCCCACCUAUCCACCCAUGAACCCAAUUCCACCACCACUGCCUCCUGACAUACCGAGCUUCGACAUUAUUGCUGACAGCUUGUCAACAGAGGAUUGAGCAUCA,0.397
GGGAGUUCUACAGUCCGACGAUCAGUUCCAGAACCAGAAUCAGAAAUGAAGAUGAGACUACCAAGACGAGCCAAAACCGCAGCACUAGAAAAAAGUAAACUUAACCUUGCCCAAUUUCUCAAUGAAGAUCUAAGUUAGGAAAGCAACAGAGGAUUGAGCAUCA,2.6
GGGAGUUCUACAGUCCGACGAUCGGAGGAUCAUCUGAGAAGGGAAGAACCAAAAGAGAAUUUAUAUGUUCUAUAUGUGGAAGGACAUUACCUAAAUUAUACUCUCUCCGCAUACAUAUGCUAAAGCACACGGGUGUAAAGCCGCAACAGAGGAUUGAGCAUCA,0.146

# Series 4
# Target: Phosphate system positive regulatory protein PHO4, full length, GST-tagged (PHO4, Saccharomyces cerevisiae, UniProt P07270, residues 1-312)
# Technique: competition protein-binding microarray
# Form: double-stranded DNA, one strand shown
# Medium: in vitro
# Concentration: 2 µM
# Notes: whole 60-bp probe, lowest competitor level
# Added: Cbf1 competitor, 0.05 µM
# Direction: higher = stronger binding
# Construct (chain): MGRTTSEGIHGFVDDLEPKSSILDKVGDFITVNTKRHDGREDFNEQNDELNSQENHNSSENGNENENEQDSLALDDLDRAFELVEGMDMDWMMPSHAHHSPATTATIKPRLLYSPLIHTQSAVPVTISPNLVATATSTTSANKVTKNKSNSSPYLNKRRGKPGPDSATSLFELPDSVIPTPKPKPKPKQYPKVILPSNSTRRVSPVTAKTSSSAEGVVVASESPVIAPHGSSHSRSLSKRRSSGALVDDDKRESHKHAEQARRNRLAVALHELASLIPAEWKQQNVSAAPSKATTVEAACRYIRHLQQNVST
Sequence,fluorescence intensity
GAATCCTATGCTTCACACATGAGGACAGGTTACGAAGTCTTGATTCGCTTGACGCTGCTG,6220 a.u.
ATAAGAGTACTGTTCCACGTGTTTCGATTGCCTTTAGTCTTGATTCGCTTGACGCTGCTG,20600 a.u.
TTTTCAAAAATATTGCACGGGCTTTCTGTATATTGAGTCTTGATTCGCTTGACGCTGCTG,9530 a.u.
TCGTTCCAGCCGTTCCACGTTTTTGTTATCTAAGCAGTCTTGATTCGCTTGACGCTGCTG,12200 a.u.
TCTCTCCATTCGGTTGATGTGATGCTTTGCTGTAAAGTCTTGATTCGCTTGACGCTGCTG,4360 a.u.
CTTTCCCGATCTTGCACAGTGGGTGTAGCACATTTGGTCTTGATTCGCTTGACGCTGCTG,4850 a.u.
CTGTTTACCAATACTCACGTGGCCGCTCTTCTTTAGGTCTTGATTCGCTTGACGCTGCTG,16100 a.u.
CATACCCAACCTTTTCACGTGTGATAAGATATTTGTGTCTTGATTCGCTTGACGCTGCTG,13900 a.u.
AGATCGACGGAAGAGAACGTGCAAACCTTTGGGCTGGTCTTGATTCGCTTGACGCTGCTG,13200 a.u.
CACCACTTCATTCCACCCGTGGTGACGCTGAGACAAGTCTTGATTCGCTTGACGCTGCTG,7490 a.u.
AAAGCGGTAATTTGGCATGTGGGTGCAGATATCTATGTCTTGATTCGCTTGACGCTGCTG,11500 a.u.
ACTGAGCATCGTCGGCACGTCTTTGCAGCATCCAATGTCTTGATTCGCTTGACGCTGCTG,7780 a.u.
TATCTCGCTCACCATCACGGCCGCCGCCATTCCCGAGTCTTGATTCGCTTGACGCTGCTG,3920 a.u.
CGGGGTTAAGTTTTTCACGTGATCTGCTTGCAGCAGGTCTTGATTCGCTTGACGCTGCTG,10800 a.u.
AAAGCGGTAATTTGCATAGTGGGTGCAGATATCTATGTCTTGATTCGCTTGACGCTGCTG,4980 a.u.
CATACCCAACCTTGGAATGTGGGTGAAGATATTTGTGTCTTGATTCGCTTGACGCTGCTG,6580 a.u.
